Measurements pooled from the literature.
Each line is one published result; not all experiments were run side by side. ± marks the error that the study gave.
Method: steady-state kinetics
B1: ASRGL1 (Homo sapiens, UniProt Q7L266); chain 1 MNPIVVVHGGGAGPISKDRKERVHQGMVRAATVGYGILREGGSAVDAVEGAVVALEDDPEFNAGCGSVLNTNGEVEMDASIMDGKDLSAGAVSAVQCIANPIKLARLVMEKTPHCFLTDQGAAQFAAAMGVPEIPGEKLVTERNKKRLEKEKHEKGAQKTDCQKNLG; chain 2 TVGAVALDCKGNVAYATSTGGIVNKMVGRVGDSPCLGAGGYADNDIGAVSTTGHGESILKVNLARLTLFHIEQGKTVEEAADLSLGYMKSRVKGLGGLIVVSKTGDWVAKWTSTSMPWAAAKDGKLHFGIDPDDTTITDLP
B2: enzyme (Chlamydomonas reinhardtii, UniProt A0A2K3D6R4); chain MSETAGKPIECKAAIAWEAKKPLEVRTVTVAPPGPGEVRVQIKATALCQTDAYTLGGLDPEGRFPCILGHEAAGVVESVGEGVTSVKPGDHVIPCYQAYCGECKFCKHPESNLCVSVRAFTGKGVMKSDGKPRFTVDGKPIYHFMGTSTFSEYTVVHEQSVAKIDVNAPLDKVCLLGCGVSTGWGAVFNTAKVTAGSTVAVFGLGAVGLAVIEAAKRAGASRIIAVDIDPTKFPTAKEFGATDCINPKDHEKPIQQVIVEMTEWGCDYTFECIGNTAVMRAALECAHRGWGTSVIVGVAAAGQEISTRPFQLVTGRRWMGTAFGGYKSRVQVPDLVTDYMSGATLLDKYITHNMKFDQINEAFELLHAGECLRCVLTF
B3: enzyme (Thermobifida fusca, UniProt Q47RA9); chain MIMIMASKSSPHDLPDVSGLSIAVLGGTGDQGRGLARRFAMAGHEVILGSRSAERAQAVAAELGEGLPVRGMDNAGAAEAGDVVIVAVPWDGHRALLESLKDVLAGKIVVDCVNPLGFDKRGAYALPVEEGSAAEQAAAILPDSRVVAAFHHVSAVLLLDPEVEKVDLDVLVLGDDREATDVVRALAARIPGVRGVYGGRLRNAHQVEAFTANLISINRRYKAHAGIRITDI
B4: Pck1 A467G (Rattus norvegicus, UniProt P07379); chain MPPQLHNGLDFSAKVIQGSLDSLPQEVRKFVEGNAQLCQPEYIHICDGSEEEYGRLLAHMQEEGVIRKLKKYDNCWLALTDPRDVARIESKTVIITQEQRDTVPIPKSGQSQLGRWMSEEDFEKAFNARFPGCMKGRTMYVIPFSMGPLGSPLAKIGIELTDSPYVVASMRIMTRMGTSVLEALGDGEFIKCLHSVGCPLPLKKPLVNNWACNPELTLIAHLPDRREIISFGSGYGGNSLLGKKCFALRIASRLAKEEGWLAEHMLILGITNPEGKKKYLAAAFPSACGKTNLAMMNPTLPGWKVECVGDDIAWMKFDAQGNLRAINPENGFFGVAPGTSVKTNPNAIKTIQKNTIFTNVAETSDGGVYWEGIDEPLAPGVTITSWKNKEWRPQDEEPCAHPNSRFCTPASQCPIIDPAWESPEGVPIEGIIFGGRRPAGVPLVYEALSWQHGVFVGAAMRSEATAGAEHKGKVIMHDPFAMRPFFGYNFGKYLAHWLSMAHRPAAKLPKIFHVNWFRKDKNGKFLWPGFGENSRVLEWMFGRIEGEDSAKLTPIGYVPKEDALNLKGLGDVNVEELFGISKEFWEKEVEEIDKYLEDQVNADLPYEIERELRALKQRISQM
B5: ltaE H83F (Escherichia coli, UniProt P75823); chain MIDLRSDTVTRPSRAMLEAMMAAPVGDDVYGDDPTVNALQDYAAELSGKEAAIFLPTGTQANLVALLSHCERGEEYIVGQAAFNYLFEAGGAAVLGSIQPQPIDAAADGTLPLDKVAMKIKPDDIHFARTKLLSLENTHNGKVLPREYLKEAWEFTRERNLALHVDGARIFNAVVAYGCELKEITQYCDSFTICLSKGLGTPVGSLLVGNRDYIKRAIRWRKMTGGGMRQSGILAAAGIYALKNNVARLQEDHDNAAWMAEQLREAGADVMRQDTNMLFVRVGEENAAALGEYMKARNVLINASPIVRLVTHLDVSREQLAEVAAHWRAFLAR
B6: sacB Y196F (Priestia megaterium, UniProt D5DC07); chain KGNDSKDFNNSYGISHITRDNMVKIPQQQNSDQFKVPAFDESTIKNIASAKGKNASGNTIDLDVWDSWPLQNADGTVATYHGYQIVFALAGDPKDSNDTSVYLFYKKAGDKSIDSWKNAGRVFKDSDKFVPNDPHLKNQTQEWSGSGTLTKDGKVRLFYTDYSGKQFGKQTLTTAQVNMSQPNDNTLKVDGVEDYKSIFDGDGKIYQTVQQFIDEGGYDTGDNHTLRDPHYIEDNGHKYLVFEANTGTEDGYQGEDSLYNRAYYGGNNPFFQSEKKKLLEGSNKEKASLANGALGIIELNDDYTLKKVMKPLITSNTVTDEIERANIFKKDGKWYLFTDSRGSKMTIDGIGQDDVYMLGYVSNTLTGKYKPLNDTGLVLHMDLDPNDKTFTYSHFAVPQTKGDNVVITSYMTNRGFYEDNHSTFAPSFLVNIDGSKTSVVKDRVLEQGQLTVDED
B7: enzyme (Irpex lacteus, UniProt A0A510I1H7); chain QSQVWGQCGGIGWTGATTCVAGSVCTKSNDYYSQCIPGAAAPSSAPPASTPVSVPPSQPSGSSGGLANIPASKLTQFSNFGTNPNNVQMFVYKPKNVAANPPLIVASHYCSGTAQAYFTGSKFAQLAETYGYVVIFPSSPHSGTCWDVSSDETLMHDGGSDSLSIANAARFAISNWGVDPNRVFAVGTSSGAMMTSVLAGAYPDIFKAGIVDSGVAFGCFAVPGQPEDSWNSQCSEGQLVLTGQQWAQKVKNAFPGFTGTYPKMQVWHGTADTTLYPQNFFEEVKQWTTIFNYPSTPLSNVTQTNLGSNYHNATFGPNFQAILATGVGHTVPLFEQQYLQFLGIA
B8: protein F222A (Planktothrix agardhii, UniProt F5B6Z0); chain MIVNVIQKDRLKEQKLQFIRNHQQAFDVEPIYPLPLFEDFVTSIEGDCSLEASCKIESDKLIASRFLLFFEDKTQEWQKYLHQSLTFFGLVENRVGVKINYSLLQQFLGSSFDFSKVTVLSAGIDLRNNLAESSLKMHIRIKDYPEKLDKAFALSDGAADGNYLKDFVNLIGFDFYFNGKSEIEIYAEVQEDDFFKPEINNLVWQHFPKTALQPLKASSLFATGLSKANNNPVLYYHLKNRQDLTNYFKLNDTAQRVHSFYQHQDILPYMWVGTAQKELEKTRIENIRLYYYKSFKMESN
B9: Paox H64A (Mus musculus, UniProt Q8C0L6); chain MAFPGPRVLVVGSGIAGLGAAQKLCSHRAAPHLRVLEATASAGGRIRSERCFGGVVELGAHWIAGPSQDNPVFQLAAEFGLLGEKELSEENQLVDTGGHVALPSMIWSSSGTSVSLELMTEMARLFYGLIERTREFLNESETPMASVGEFLKKEISQQVASWTEDDEDTRKRKLAILNTFFNIECCVSGTHSMDLVALAPFGEYTVLPGLDCILAGGYQGLTDRILASLPKDTVAFDKPVKTIHWNGSFQEAAFPGETFPVLVECEDGARLPAHHVIVTVPLGFLKEHQDTFFEPPLPAKKAEAIKKLGFGTNNKIFLEFEEPFWEPDCQFIQVVWEDTSPLQDTALSLQDTWFKKLIGFLVQPSFESSHVLCGFIAGLESEFMETLSDEEVLLSLTQVLRRVTGNPQLPAAKSVRRSQWHSAPYTRGSYSYVAVGSTGDDLDLMAQPLPEDGTGTQLQVLFAGEATHRTFYSTTHGALLSGWREADRLVSLWDSQVEQSRPRL
B10: SUOX R529M/Y400N (Homo sapiens, UniProt P51687); chain ESTHIYTKEEVSSHTSPETGIWVTLGSEVFDVTEFVDLHPGGPSKLMLAAGGPLEPFWALYAVHNQSHVRELLAQYKIGELNPEDKVAPTVETSDPYADDPVRHPALKVNSQRPFNAEPPPELLTENYITPNPIFFTRNHLPVPNLDPDTYRLHVVGAPGGQSLSLSLDDLHNFPRYEITVTLQCAGNRRSEMTQVKEVKGLEWRTGAISTARWAGARLCDVLAQAGHQLCETEAHVCFEGLDSDPTGTAYGASIPLARAMDPEAEVLLAYEMNGQPLPRDHGFPVRVVVPGVVGARHVKWLGRVSVQPEESYSHWQRRDNKGFSPSVDWETVDFDSAPSIQELPVQSAITEPRDGETVESGEVTIKGYAWSGGGRAVIRVDVSLDGGLTWQVAKLDGEEQRPRKAWAWRLWQLKAPVPAGQKELNIVCKAVDDGYNVQPDTVAPIWNLMGVLSNAWHRVHVYVSP
B11: oxdC (Bacillus subtilis, UniProt O34714); chain MKKQNDIPQPIRGDKGATVKIPRNIERDRQNPDMLVPPETDHGTVSNMKFSFSDTHNRLEKGGYAREVTVRELPISENLASVNMRLKPGAIRELHWHKEAEWAYMIYGSARVTIVDEKGRSFIDDVGEGDLWYFPSGLPHSIQALEEGAEFLLVFDDGSFSENSTFQLTDWLAHTPKEVIAANFGVTKEEISNLPGKEKYIFENQLPGSLKDDIVEGPNGEVPYPFTYRLLEQEPIESEGGKVYIADSTNFKVSKTIASALVTVEPGAMRELHWHPNTHEWQYYISGKARMTVFASDGHARTFNYQAGDVGYVPFAMGHYVENIGDEPLVFLEIFKDDHYADVSLNQWLAMLPETFVQAHLDLGKDFTDVLSKEKHPVVKKKCSK
Sequence of UniProt Q6F4M8 (whole entry, looked up): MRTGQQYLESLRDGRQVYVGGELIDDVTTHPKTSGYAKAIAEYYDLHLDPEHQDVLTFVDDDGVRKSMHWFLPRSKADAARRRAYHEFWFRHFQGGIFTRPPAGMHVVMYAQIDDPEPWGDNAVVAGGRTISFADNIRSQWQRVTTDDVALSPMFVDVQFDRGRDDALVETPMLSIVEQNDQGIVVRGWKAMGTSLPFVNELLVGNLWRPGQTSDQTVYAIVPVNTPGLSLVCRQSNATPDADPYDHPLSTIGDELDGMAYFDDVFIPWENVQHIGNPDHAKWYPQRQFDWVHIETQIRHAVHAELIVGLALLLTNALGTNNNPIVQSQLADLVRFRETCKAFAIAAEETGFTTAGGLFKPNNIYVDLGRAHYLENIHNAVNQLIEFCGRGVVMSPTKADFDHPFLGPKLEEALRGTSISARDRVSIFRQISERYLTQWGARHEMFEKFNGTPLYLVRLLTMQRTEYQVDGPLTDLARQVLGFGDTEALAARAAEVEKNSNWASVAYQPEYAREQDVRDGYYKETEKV
Sequence of UniProt O60656 (whole entry, looked up): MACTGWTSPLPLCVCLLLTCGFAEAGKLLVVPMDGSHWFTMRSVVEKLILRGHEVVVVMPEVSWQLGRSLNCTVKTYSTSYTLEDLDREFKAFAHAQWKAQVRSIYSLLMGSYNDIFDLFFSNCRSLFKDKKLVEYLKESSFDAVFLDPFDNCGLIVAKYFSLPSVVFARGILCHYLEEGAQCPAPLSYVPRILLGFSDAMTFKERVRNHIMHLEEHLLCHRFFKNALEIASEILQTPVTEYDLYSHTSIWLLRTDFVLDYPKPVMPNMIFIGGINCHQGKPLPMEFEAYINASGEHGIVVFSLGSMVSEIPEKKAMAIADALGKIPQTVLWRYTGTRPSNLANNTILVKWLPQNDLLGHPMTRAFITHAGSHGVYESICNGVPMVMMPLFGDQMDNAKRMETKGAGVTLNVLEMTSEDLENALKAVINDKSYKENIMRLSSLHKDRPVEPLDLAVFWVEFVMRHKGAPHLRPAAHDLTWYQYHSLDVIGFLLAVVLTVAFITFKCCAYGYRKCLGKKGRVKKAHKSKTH
Sequence of UniProt P07914 (whole entry, looked up): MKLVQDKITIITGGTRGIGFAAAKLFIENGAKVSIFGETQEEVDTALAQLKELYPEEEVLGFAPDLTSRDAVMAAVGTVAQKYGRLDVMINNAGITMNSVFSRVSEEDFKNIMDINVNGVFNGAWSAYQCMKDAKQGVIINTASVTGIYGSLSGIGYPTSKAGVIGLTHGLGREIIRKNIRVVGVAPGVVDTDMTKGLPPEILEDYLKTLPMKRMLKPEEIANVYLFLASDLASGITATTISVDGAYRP

`B1 (ASRGL1)` gave a kcat of 3 ± 0.1 s⁻¹ (N[C@@H](CC(=O)N[C@@H](Cc1ccccc1)C(=O)O)C(=O)O; pH 7.4, 37 °C, NaCl 100 mM).
With `B2 (enzyme)` the kcat was 27 ± 0.6 s⁻¹ (NC(=O)C1=CN([C@@H]2O[C@H](COP(=O)(O)OP(=O)(O)OC[C@H]3O[C@@H](n4cnc5c(N)ncnc54)[C@H](O)[C@@H]3O)[C@@H](O)[C@H]2O)C=CC1; pH 7.9, apparent, cofactor varied).
`B3 (enzyme)` gave a kcat of 0.0233 ± 0.001 s⁻¹ (NC(=O)c1ccc[n+](CCO)c1; pH 8, 25 °C).
The kcat of `B4 (Pck1 A467G)` is reported as 1 ± 0.1 s⁻¹ (C=C(OP(=O)(O)O)C(=O)O; pH 7.5, 25 °C).
The kcat of `B5 (ltaE H83F)` is reported as 0.0617 s⁻¹ (C[C@H](O)[C@H](N)C(=O)O; pH 7, 30 °C, potassium phosphate 20 mM, retro-aldol cleavage, added: PLP 500 µM).
`B6 (sacB Y196F)` gave a kcat of 285.9 ± 2.8 s⁻¹ (OC[C@H]1O[C@@](CO)(O[C@H]2O[C@H](CO)[C@@H](O)[C@H](O)[C@H]2O)[C@@H](O)[C@@H]1O; pH 6.9).
With `B7 (enzyme)` the kcat was 29.1 ± 4.3 s⁻¹ (CC(=O)Oc1ccc([N+](=O)[O-])cc1; pH 6, 30 °C).
For `B8 (protein F222A)`, the kcat was 0.0423 ± 0.003 s⁻¹ (CC(C)=CCOP(=O)(O)OP(=O)(O)O; added: tri-Tyr peptide acceptor).
The kcat of `protein (Actinidia deliciosa, UniProt C7SHN9)` is reported as 0.03 ± 0.005 s⁻¹ (CC(C)=CCC/C(C)=C/COP(=O)(O)OP(=O)(O)O; pH 7.5, added: GPP 1-100 µM).
`B9 (Paox H64A)` gave a kcat of 0.16 ± 0.01 s⁻¹ (c1ccc(CNCCCCNCc2ccccc2)cc1; pH 8.6, 30 °C).
The kcat of `BaiA1 (Clostridium scindens, UniProt P07914)` is reported as 0.733 s⁻¹ (C[C@H](CCC(=O)SCCNC(=O)CCNC(=O)[C@H](O)C(C)(C)COP(=O)(O)OP(=O)(O)OC[C@H]1O[C@@H](n2cnc3c(N)ncnc32)[C@H](O)[C@@H]1OP(=O)(O)O)[C@H]1CC[C@H]2[C@@H]3CC[C@@H]4CC(=O)CC[C@]4(C)[C@H]3C[C@H](O)[C@]12C; pH 8.7, 37 °C, added: NADH).
With `B10 (SUOX R529M/Y400N)` the kcat was 0.82 s⁻¹ (O=[N+]([O-])O; pH 7, 25 °C, added: dithionite-reduced methyl viologen).
The Km of `UGT1A9 (Homo sapiens, UniProt O60656)` is reported as 0.25 µM (O=c1cc(-c2ccccc2)oc2cc(O)cc(O)c12; pH 7.4, 37 °C).
With `enzyme (Rhodococcus opacus, UniProt Q6F4M8)` the kcat was 0.079 ± 0.01 s⁻¹ (O=[N+]([O-])c1ccc(O)cc1; pH 7.5, 25 °C).
With `B11 (oxdC)` the kcat was 53 ± 1.5 s⁻¹ (O=C(O)C(=O)O; pH 4.2, added: Mn 1.87 per monomer, Triton X-100.2%).
